Measured values gathered from unrelated publications.
Lines come from different studies, so protocols differ. Values joined by “and” are separate records of one study, mostly repeats; a detail may differ. ± gives the spread as reported.
TOP2A: DNA topoisomerase 2-alpha (TOP2A, Homo sapiens, UniProt P11388)
Sequence of UniProt P11388 (whole entry, looked up): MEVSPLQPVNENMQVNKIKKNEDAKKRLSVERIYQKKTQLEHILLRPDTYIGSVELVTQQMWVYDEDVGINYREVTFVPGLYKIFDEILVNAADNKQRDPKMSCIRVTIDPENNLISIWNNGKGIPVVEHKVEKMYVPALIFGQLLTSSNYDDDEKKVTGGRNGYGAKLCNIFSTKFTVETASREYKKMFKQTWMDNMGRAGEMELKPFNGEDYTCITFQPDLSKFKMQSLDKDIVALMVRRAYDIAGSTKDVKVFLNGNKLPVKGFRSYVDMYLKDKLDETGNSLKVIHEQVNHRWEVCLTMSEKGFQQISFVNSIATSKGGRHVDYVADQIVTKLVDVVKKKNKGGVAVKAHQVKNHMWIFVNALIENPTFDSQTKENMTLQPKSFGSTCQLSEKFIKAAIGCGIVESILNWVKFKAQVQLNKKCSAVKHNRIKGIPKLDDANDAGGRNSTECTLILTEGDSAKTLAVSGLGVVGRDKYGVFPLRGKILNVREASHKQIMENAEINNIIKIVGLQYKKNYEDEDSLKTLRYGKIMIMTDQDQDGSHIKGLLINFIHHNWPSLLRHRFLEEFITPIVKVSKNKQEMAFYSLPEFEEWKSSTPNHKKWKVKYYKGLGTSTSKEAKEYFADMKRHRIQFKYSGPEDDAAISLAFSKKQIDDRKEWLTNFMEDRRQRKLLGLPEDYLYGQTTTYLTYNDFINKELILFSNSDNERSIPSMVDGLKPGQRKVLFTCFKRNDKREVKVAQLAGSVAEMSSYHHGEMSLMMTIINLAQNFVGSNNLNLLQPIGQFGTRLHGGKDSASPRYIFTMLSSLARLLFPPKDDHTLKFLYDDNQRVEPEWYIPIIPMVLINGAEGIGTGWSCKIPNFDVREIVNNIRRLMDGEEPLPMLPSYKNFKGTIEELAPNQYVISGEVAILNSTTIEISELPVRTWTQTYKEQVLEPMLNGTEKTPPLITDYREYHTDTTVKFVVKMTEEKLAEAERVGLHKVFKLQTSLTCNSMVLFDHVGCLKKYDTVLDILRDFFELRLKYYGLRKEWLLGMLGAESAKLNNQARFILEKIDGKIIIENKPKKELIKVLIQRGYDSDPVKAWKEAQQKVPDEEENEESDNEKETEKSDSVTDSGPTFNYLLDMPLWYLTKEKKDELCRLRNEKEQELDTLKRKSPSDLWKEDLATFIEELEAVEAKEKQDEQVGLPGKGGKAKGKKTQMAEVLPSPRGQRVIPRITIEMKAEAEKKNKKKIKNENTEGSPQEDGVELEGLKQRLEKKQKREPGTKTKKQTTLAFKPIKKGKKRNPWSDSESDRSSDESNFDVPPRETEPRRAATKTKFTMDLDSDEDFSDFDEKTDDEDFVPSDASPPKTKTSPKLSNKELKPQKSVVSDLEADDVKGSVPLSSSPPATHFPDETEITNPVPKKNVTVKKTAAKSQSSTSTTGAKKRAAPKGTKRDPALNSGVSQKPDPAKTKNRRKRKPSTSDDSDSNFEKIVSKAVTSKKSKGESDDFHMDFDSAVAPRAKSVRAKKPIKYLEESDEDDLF
ALB: Albumin (ALB, Homo sapiens, UniProt P02768)
uncharacterized protein: uncharacterized protein (Spodoptera exigua, UniProt F1CEY0)
Sequence of UniProt P51575 (whole entry, unmodified, looked up): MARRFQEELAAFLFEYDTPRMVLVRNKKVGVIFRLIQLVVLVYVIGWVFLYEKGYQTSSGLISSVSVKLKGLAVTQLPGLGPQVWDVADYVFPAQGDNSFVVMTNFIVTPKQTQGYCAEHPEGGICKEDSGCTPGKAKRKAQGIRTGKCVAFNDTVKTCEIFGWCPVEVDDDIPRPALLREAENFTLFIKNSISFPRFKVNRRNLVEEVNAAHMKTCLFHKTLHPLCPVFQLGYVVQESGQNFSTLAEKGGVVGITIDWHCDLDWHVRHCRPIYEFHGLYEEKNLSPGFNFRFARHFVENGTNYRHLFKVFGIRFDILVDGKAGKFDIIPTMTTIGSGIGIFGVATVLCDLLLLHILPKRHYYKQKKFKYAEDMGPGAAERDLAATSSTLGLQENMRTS
Sequence of UniProt Q16774 (whole entry, unmodified, looked up): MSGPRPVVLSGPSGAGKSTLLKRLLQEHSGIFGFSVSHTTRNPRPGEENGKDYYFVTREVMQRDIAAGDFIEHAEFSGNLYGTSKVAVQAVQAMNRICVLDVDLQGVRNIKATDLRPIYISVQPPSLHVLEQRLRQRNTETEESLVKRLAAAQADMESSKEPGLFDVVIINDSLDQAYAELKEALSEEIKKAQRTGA
Sequence of UniProt P19793 (whole entry, looked up): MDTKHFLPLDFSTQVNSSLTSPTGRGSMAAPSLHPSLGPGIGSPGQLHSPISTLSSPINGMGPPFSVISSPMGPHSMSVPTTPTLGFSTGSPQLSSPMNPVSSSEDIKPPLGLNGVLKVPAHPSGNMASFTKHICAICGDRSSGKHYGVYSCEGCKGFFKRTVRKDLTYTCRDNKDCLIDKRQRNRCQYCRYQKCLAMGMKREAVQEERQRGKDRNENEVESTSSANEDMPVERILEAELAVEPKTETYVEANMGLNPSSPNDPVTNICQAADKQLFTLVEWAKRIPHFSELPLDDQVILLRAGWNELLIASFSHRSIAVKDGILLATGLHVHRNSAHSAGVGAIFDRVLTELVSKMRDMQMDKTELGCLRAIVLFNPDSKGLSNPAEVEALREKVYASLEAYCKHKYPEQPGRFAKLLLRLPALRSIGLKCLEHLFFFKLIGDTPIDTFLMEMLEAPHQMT
Sequence of UniProt P02776 (whole entry, looked up): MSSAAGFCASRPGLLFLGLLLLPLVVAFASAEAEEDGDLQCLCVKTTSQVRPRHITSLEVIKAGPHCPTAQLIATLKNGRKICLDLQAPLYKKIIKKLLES
Sequence of UniProt Q9NRH2 (whole entry, looked up): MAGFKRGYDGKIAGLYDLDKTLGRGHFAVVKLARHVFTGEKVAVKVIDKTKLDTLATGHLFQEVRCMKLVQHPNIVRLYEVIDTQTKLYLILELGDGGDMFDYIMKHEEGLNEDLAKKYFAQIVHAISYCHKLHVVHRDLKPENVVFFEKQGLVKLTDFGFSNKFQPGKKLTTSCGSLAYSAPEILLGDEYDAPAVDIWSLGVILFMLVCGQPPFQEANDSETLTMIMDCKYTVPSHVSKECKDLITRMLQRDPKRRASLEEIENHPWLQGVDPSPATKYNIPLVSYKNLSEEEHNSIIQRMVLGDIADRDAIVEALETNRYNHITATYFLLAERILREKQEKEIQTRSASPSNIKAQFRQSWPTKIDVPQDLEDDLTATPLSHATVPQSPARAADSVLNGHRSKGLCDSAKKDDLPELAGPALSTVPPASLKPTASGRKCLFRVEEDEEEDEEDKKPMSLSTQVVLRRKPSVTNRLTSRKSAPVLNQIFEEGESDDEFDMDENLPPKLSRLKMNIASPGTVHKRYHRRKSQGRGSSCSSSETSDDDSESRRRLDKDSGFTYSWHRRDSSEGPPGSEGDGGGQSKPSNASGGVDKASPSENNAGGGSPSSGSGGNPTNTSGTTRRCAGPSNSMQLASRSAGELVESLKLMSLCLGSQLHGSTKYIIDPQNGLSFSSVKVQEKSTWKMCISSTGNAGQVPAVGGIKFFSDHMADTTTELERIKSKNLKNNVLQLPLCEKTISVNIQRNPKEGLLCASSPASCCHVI
Sequence of UniProt P29317 (whole entry, looked up): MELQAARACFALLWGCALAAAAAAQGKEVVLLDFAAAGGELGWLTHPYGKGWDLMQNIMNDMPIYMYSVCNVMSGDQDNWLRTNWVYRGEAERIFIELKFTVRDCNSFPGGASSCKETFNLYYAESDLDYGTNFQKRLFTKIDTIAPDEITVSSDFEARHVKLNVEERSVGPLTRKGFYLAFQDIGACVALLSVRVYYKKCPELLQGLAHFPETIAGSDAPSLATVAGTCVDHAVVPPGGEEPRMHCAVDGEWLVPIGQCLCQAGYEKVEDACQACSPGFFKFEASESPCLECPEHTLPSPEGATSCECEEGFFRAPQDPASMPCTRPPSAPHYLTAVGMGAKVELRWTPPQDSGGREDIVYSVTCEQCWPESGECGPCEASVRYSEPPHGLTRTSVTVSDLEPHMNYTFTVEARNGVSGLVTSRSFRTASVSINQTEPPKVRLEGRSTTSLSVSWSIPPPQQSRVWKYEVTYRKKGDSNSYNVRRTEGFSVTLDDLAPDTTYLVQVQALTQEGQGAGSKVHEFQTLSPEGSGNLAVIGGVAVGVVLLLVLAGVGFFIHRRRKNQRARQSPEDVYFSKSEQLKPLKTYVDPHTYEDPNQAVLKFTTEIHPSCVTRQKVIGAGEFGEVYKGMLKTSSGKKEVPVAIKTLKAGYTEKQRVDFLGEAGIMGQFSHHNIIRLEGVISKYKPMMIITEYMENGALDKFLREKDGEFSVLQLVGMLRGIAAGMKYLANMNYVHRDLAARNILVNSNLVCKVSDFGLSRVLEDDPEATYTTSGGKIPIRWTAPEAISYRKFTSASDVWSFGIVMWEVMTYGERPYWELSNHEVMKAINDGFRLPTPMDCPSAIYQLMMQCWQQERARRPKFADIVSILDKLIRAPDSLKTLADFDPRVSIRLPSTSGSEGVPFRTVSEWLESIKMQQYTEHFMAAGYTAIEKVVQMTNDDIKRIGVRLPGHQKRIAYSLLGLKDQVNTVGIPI

SMILES	target	assay	test system	setting	how to read	quantity	result
Cc1ccc(S(=O)(=O)NNc2ccc([N+](=O)[O-])cc2[N+](=O)[O-])cc1	PTGS2 (Homo sapiens, UniProt P35354)	–	–	–	baseline: COX-1 IC50 over COX-2 IC50	selectivity ratio	41
Cc1ccc(S(=O)(=O)Nc2ccc(F)cc2NS(=O)(=O)c2ccc(C)cc2)cc1	biotinylated pre-let-7d RNA	SPR	–	up to 6.25 µM	–	binding	no binding
Nc1ncnc2c1ncn2[C@@H]1O[C@H](COP(=O)(O)CP(=O)(O)OP(=O)(O)O)[C@@H](O)[C@H]1O	P2X purinoceptor 1 (P2RX1, Homo sapiens, UniProt P51575, D97A)	calcium influx	–	3.16 µM	baseline: ionomycin response	calcium influx	93% and 91.9% and 85.7% and 75.8%
C[C@H](N)C(=O)Nc1ccc2ccccc2c1	Puromycin-sensitive aminopeptidase (Rattus norvegicus, UniProt F1M9V7)	substrate	–	MW 100 kDa	–	kcat	27.2 s⁻¹
c1ccc(-c2n[nH]cc2-c2ccnc3ccccc23)nc1	Carbon catabolite-derepressing protein kinase (SNF1, Candida albicans, UniProt P52497)	kinase binding, competitor, MIB/MS competition, measured: SNF1	Candida albicans cell lysate	10 µM	baseline: DMSO	log2 fold change	0.723
CCC[C@@H]1NC(=O)[C@H](Cc2ccc(-c3ccccc3)cc2)NC(=O)[C@H](CC(C)C)NC(=O)[C@@H]2CCCN2C(=O)[C@@H](NC(=O)[C@H](CCCNC(=N)N)NC(=O)[C@H](CCCNC(=N)N)NC(C)=O)CSSC[C@@H](C(=O)N[C@@H](CCCNC(=N)N)C(=O)N[C@@H](CCCNC(=N)N)C(N)=O)NC(=O)[C@H](C(C)C)NC(=O)[C@@H]2CCCN2C(=O)[C@H](CC(=O)O)NC(=O)[C@H](Cc2ccc(O)cc2)NC(=O)[C@H](CO)NC1=O	GTPase KRas, GDP-bound (KRAS, Homo sapiens, UniProt P01116, G12D)	affinity selection mass spectrometry	–	mixture library 1, with: protein titration up to 5 µM	lower is stronger binding	lowest bound protein concentration	0.31 to 0.62 µM
CN1CCN(c2cnc3c(cc(C(=O)NCc4ccc(Cl)cc4)c(=O)n3CC(=O)N3CC(C)(F)C3)n2)C1=O	DNA polymerase catalytic subunit (Human cytomegalovirus, UniProt P08546)	enzyme activity, inhibitor	–	–	–	Hill slope	1
COc1cccc(F)c1-c1ccc(C(=O)NC[C@@H](N)C(=O)O)s1	Glutamate receptor ionotropic, NMDA 1, with GluN2D (Grin1, Rattus norvegicus, UniProt P35439)	–	–	with: glutamate 300 µM	–	Hill slope	1.38
N[C@@H](Cc1ccc(C(F)(F)P(=O)(O)O)cc1)C(=O)O	PTPN1 (Homo sapiens, UniProt P18031)	inhibitor, pNPP hydrolysis	–	–	baseline: IC50 PTP-MEG2 over IC50 PTPN1	selectivity ratio	23 fold
O=C(Nc1ccc(-c2ccccc2)cc1)[C@H]1O[C@H](O[C@@H]2[C@@H](OCc3ccc4ccccc4c3)[C@H](O[C@H]3O[C@H](CNS(=O)(=O)O)[C@@H](OCc4ccc5ccccc5c4)C[C@H]3NS(=O)(=O)O)[C@@H](NS(=O)(=O)O)C[C@H]2NS(=O)(=O)O)[C@H](OCc2ccc3ccccc3c2)[C@@H](NS(=O)(=O)O)[C@@H]1OCc1ccc2ccccc2c1	Platelet factor 4 (Homo sapiens, UniProt P02776)	–	–	–	baseline: IC50 PF4 over IC50 heparanase	selectivity ratio	> 300 fold
C=CC(=O)N1CCC(COCC(=O)N2CCN(c3nc(-c4cnc(N)nc4C(F)F)nc(N4CCOC[C@@H]4C)n3)CC2)CC1	BMPR1A (Homo sapiens, UniProt P36894)	KINOMEscan	–	1 µM	–	remaining binding	100%
Nc1ncnc2c1ncn2[C@@H]1O[C@H](CO[P@](=O)(O)O[P@](=O)(O)O[P@@](=O)(O)S)[C@@H](O)[C@H]1O	GUK1 (Homo sapiens, UniProt Q16774, R148A)	binding, ITC	–	with: GMP	–	-TΔS	2.03 kcal/mol
Cc1nc(CSc2nc(SCc3ccc(C(C)C)cc3)nc(=O)[nH]2)cs1	TOP2A	DNA cleavage	–	31.25 µM, replicate 1	–	linear DNA	0%
CC[C@@H]1[C@H](F)C(=O)N[C@@H]1COc1nccc2cc(C(N)=O)c(OC)cc12	SNRK (Homo sapiens, UniProt Q9NRH2)	ATP-site probe binding, ActivX profiling	THP-1 cell lysate	0.04 mM, Lys1 site	–	inhibition	9.5%
OC[C@H]1O[C@@H](Oc2cc3c(O)cc(O)cc3[o+]c2-c2cc(O)c(O)c(O)c2)[C@H](O)[C@@H](O)[C@@H]1O	ALB	binding, visible absorption	–	50 µM, pH 7, with: HSA up to 200 µM	baseline: without HSA	bathochromic shift	67 nm
CC(=O)Nc1ccc(O)cc1	BRD4 (Homo sapiens, UniProt O60885)	19F NMR, measured: tyrosine 65	–	188 µM	baseline: free protein	chemical shift change	-0.009 ppm
C=CC(=O)N1CCC[C@@H](n2nc(-c3ccc(Oc4ccccc4)cc3)c3c(N)ncnc32)C1	EPHA2 (Homo sapiens, UniProt P29317)	–	–	1 µM	–	remaining activity	110%
CCCCCCCC(=O)c1cc(OC)c(OC)c(OC)c1CC(=O)OCC	RXRA (Homo sapiens, UniProt P19793)	reporter gene, Gal4 hybrid reporter	–	10 µM	baseline: vehicle	activation	0.74 fold

SMILES	target	assay	test system	setting	how to read	quantity	result
CC(=O)OCCC(C)C	uncharacterized protein	binding, competitor, fluorescence displacement	–	20 µM, pH 7.4, with: 1-NPN 20 µM	baseline: 1-NPN alone	relative fluorescence	76.5%
O=c1cc(CO)occ1[O-].[Cl-].[W+4].c1cc[cH-]c1.c1cc[cH-]c1	ALB	fluorescence quenching	–	310 K	–	Stern-Volmer quenching constant	15000 L/mol
OC[C@H]1O[C@@H](Oc2cc3c(O)cc(O)cc3[o+]c2-c2ccc(O)cc2)[C@H](O)[C@@H](O)[C@@H]1O	ALB	binding, visible absorption	–	50 µM, pH 7, with: HSA up to 200 µM	baseline: without HSA	bathochromic shift	17 nm
C#Cc1c(F)ccc2cc(O)cc(-c3ncc4c(N5CC6CCC(C5)N6)nc(OC[C@@]56CCCN5C[C@H](F)C6)nc4c3F)c12	GTPase KRas, GDP-bound (KRAS, Homo sapiens, UniProt P01116, Q61R)	SPR	–	–	–	dissociation rate constant koff	0.00053 ± 0.00035 s⁻¹
C1CCCC1.C1CCCC1.[Cl][W][Cl]	ALB	fluorescence quenching	–	310 K	–	Stern-Volmer quenching constant	4770 L/mol
O=C(COP(=O)(O)O)[C@@H](O)[C@H](O)[C@H](O)COP(=O)(O)O	Small ribosomal subunit protein uS5 (Homo sapiens, UniProt P15880)	thermal proteome profiling, measured: RPS2	HepG2 cell lysate	concentration not given, 57 over 37 °C	baseline: compound over control	thermal stability ratio	0.615 and 0.474 and 0.812
Cc1nc(NC(=O)N2CCC[C@H]2C(N)=O)sc1-c1ccnc(C(C)(C)C(F)(F)F)c1	Tyrosine-protein kinase JAK1, JH1 kinase domain (JAK1, Homo sapiens, UniProt P23458)	KINOMEscan	–	10 µM	–	remaining binding	100%
CC[C@H](C)[C@@H]1NC(=O)[C@H](Cc2ccc(O)cc2)NC(=O)[C@@H](N)CSSC[C@@H](C(=O)N2CCC[C@H]2C(=O)N[C@@H](CC(C)C)C(=O)NCC(N)=O)NC(=O)[C@H](CC(N)=O)NC(=O)[C@H](CCC(N)=O)NC1=O	Oxytocin receptor (Rattus norvegicus, UniProt P70536)	–	rat myoepithelial cells	concentration not given	–	binding sites per cell	~80000
CC/C=C/CCO	uncharacterized protein	binding, 1-NPN competitive displacement	–	protein 2.0 µM, with: 1-NPN 20 µM	baseline: 1-NPN without compound, lower = stronger binding	relative fluorescence	74.9%
c1coc(-c2n[nH]cc2-c2ccnc3ccccc23)c1	Aurora kinase (IPL1, Candida albicans, UniProt Q59S66)	kinase binding, MIB/MS competition	Candida albicans lysate	10 µM	baseline: DMSO, negative = stronger binding	log2 fold change	-0.25
O=C(c1ccc(I)cc1)N1CCC(n2cncc2-c2ccc(OS(=O)(=O)c3cccc4cnccc34)cc2)CC1	P2X purinoceptor 7 (P2RX7, Homo sapiens, UniProt Q99572)	inhibitor, whole-cell voltage clamp	HEK293 stably expressing P2RX7	300 nM, 3 min preincubation, holding -60 mV, with: ATP 5 mM	–	ATP-gated current	inhibited
Nc1nc2c(ncn2[C@@H]2O[C@H](COP(=O)(O)O)[C@@H](O)[C@H]2O)c(=O)[nH]1	GUK1 (Homo sapiens, UniProt Q16774)	substrate, NADH-coupled	–	KCl 50 mM, with: ATP 2.5 mM	–	Km	29.5 µM
O=c1cc(-c2ccc([N+](=O)[O-])cc2)[nH]c2c(-c3ccc(Cl)cc3)c(Cc3ccccc3)nn12	GFM1 (Homo sapiens, UniProt Q96RP9)	thermal stability, binder, thermal proteome profiling	RD, cell lysate	50 µM, 0.5% DMSO	baseline: DMSO vehicle	melting temperature shift	2.6 °C
CCCCCCCCCCCCCC	uncharacterized protein	binding, competitor, fluorescence displacement	–	20 µM, pH 7.4, with: 1-NPN 20 µM	baseline: 1-NPN alone	relative fluorescence	74%
O=c1nc(SCc2cc(F)cc(C(F)(F)F)c2)nc(SCc2ccc3nc(Cl)ccc3c2)[nH]1	TOP2A	ATPase activity	–	31.25 µM, with: ATP 2 mM	–	ATP hydrolysis rate	1.81 µM/min and 2.48 µM/min
CCCCCCCCCCCCCCCCO	uncharacterized protein	binding, 1-NPN competitive displacement	–	protein 2.0 µM, with: 1-NPN 20 µM	baseline: 1-NPN without compound, lower = stronger binding	relative fluorescence	67.5%
O=C(O)c1ccc(Nc2ncc3c(n2)-c2ccc(Cl)cc2C(c2c(F)cccc2F)=NC3)cc1	eEF-2K(h)	kinase activity	–	1 µM	–	remaining activity	123%
Nc1nc2c(ncn2[C@@H]2O[C@H](COP(=O)(O)OP(=O)(O)O[C@H]3O[C@H](CO)[C@@H](O)[C@H](O)[C@@H]3O)[C@@H](O)[C@H]2O)c(=O)[nH]1	Bacillus thuringiensis ThuS	substrate	–	sugar donor	–	Km	< 10 µM

Some of these lines once more:
SMILES	target	assay	test system	setting	how to read	quantity	result
CCCCCCCC(=O)c1cc(OC)c(OC)c(OC)c1CC(=O)OCC	RXRA (Homo sapiens, UniProt P19793)	reporter gene, Gal4 hybrid reporter	–	10 µM	baseline: vehicle	activation	0.74 fold
C1CCCC1.C1CCCC1.[Cl][W][Cl]	ALB	fluorescence quenching	–	310 K	–	Stern-Volmer quenching constant	4770 L/mol
C=CC(=O)N1CCC(COCC(=O)N2CCN(c3nc(-c4cnc(N)nc4C(F)F)nc(N4CCOC[C@@H]4C)n3)CC2)CC1	BMPR1A (Homo sapiens, UniProt P36894)	KINOMEscan	–	1 µM	–	remaining binding	100%
